Assay results gathered from unrelated publications.
Compare with care: the assays were run in different laboratories. Values joined by “and” are separate records of one study, mostly repeats; a detail may differ.
Organism: Schistosoma mansoni

| Structure (SMILES) | assay | test system | conditions | scale | endpoint | value |
| --- | --- | --- | --- | --- | --- | --- |
| CC1(C)NC(=O)N(c2ccc(F)c(Br)c2)C1=O |  | adult, infected mice | oral, 50 mg/kg single dose |  | worm burden reduction | 50% |
| COc1ccc(Nc2cnnc3cc(-c4cnc(N5CCN(C)CC5)nc4)ccc23)cc1 |  | adult worms | 10 µM, 1 h | direction not given | phenotypic severity score | 0 |
| CC(C)[C@@H](C)Nc1nc(-c2cccs2)nc(Cl)c1-c1c(F)cc([N+](=O)[O-])cc1F | worm motility | adult worms ex vivo | 24 h |  | EC50 | < 300 nM |
| COc1ccc(Nc2cnnc3ccc(-c4cnc(N5CCCN(C)CC5)nc4)cc23)cc1 |  | adult worms | 10 µM, 48 h | direction not given | phenotypic severity score | 1 |
| CC1=C(Cc2cn(Cc3ccccc3)nn2)C(=O)c2ccccc2C1=O |  | adult worms | 10 µM, 24 h |  | killing | 50% |
| CN1CCN(S(=O)(=O)c2ccc(-c3ccc4nncc(Nc5ncccn5)c4c3)cc2)CC1 |  | adult worms | 10 µM, 1 h | direction not given | phenotypic severity score | 0 |
| O=C(C1CCCCC1)N1CC(=O)N2CCc3ccccc3C2C1 (stereo not drawn) |  | mice | 100 mg/kg daily x4, 1176 h, dosed day 7, perfused 49 | reference: vehicle | male worm burden reduction | 44% |
| COc1ccc(Nc2cnnc3ccc(-c4ccc(N5CCN(C)CC5)cc4)cc23)cc1Cl |  | adult worms | 10 µM, 24 h | direction not given | phenotypic severity score | 1 |
| CC1=C(Cn2cc(CO)nn2)C(=O)c2ccccc2C1=O |  | adult worms | 25 µM, 48 h |  | killing | 56.2% |
| COc1ccc(Nc2cnnc3cc(-c4cnc(N5CCCN(C)CC5)nc4)ccc23)cc1Cl |  | adult worms | 10 µM, 1 h | direction not given | phenotypic severity score | 1 |
| CC1=C(Cn2cc(CN3CCN(C(=O)OC(C)(C)C)CC3)nn2)C(=O)c2ccccc2C1=O |  | adult worms | 10 µM, 48 h |  | killing | 45.4% |
| CC1(C)NC(=O)N(c2cccc(C(F)(F)F)n2)C1=O |  | NMRI mice, infected | oral, 100 mg/kg single dose, 21 days post-treatment, treated day 49 post-infection |  | worm burden reduction | 4% |
| CC1=C(Cn2cc(CN3CCSC3)nn2)C(=O)c2ccccc2C1=O |  | adult worms | 25 µM, 72 h |  | killing | 51.9% |
| O=C1NC(CF)(CF)C(=O)N1c1ccc(F)c(C(F)(F)F)c1 |  | NMRI mice, infected | oral, 100 mg/kg single dose, 21 days post-treatment, treated day 49 post-infection |  | worm burden reduction | 35% |
| CC1(CNc2nc(-c3cccs3)nc(Cl)c2-c2c(F)cc(F)cc2F)COC1 | worm motility | adult worms ex vivo | 24 h |  | EC50 | 1240 nM |
| CC1(C(F)(F)F)NC(=O)N(c2ccc(F)c(C(F)(F)F)c2)C1=O (stereo not drawn) |  | juvenile, infected mice | oral, 100 mg/kg single dose |  | worm burden reduction | 62 to 100% and 99% |
| CC1=C(Cc2cn(CCN3CCC(=O)CC3)nn2)C(=O)c2ccccc2C1=O |  | adult worms | 25 µM, 24 h |  | killing | 46.5% |
| Fc1cc(F)c(-c2c(Cl)nc(-c3cccs3)nc2NCC2CCC2)c(F)c1 | worm motility | adult worms ex vivo | 24 h |  | EC50 | 780 nM |
| CC1=C(Cn2cnc([N+](=O)[O-])n2)C(=O)c2ccccc2C1=O |  | adult worms | 25 µM, 72 h |  | killing | 51.9% |
| CC1(CNc2nc(-c3cccs3)nc(Cl)c2-c2c(F)cc(C#N)cc2F)COC1 | worm motility | adult worms ex vivo | 24 h |  | EC50 | 1500 nM |
| CCS(=O)(=O)N1CCC2(CC1)NC(=O)N(c1ccc(F)c(C(F)(F)F)c1)C2=O |  | NMRI mice, infected | oral, 100 mg/kg single dose, 21 days post-treatment, treated day 49 post-infection |  | worm burden reduction | 26% |
| Nc1cc(F)c(-c2c(Cl)nc(-c3cccs3)nc2NCC2CCC2)c(F)c1 | motility | adult worms, ex vivo | 24 h |  | EC50 | 158 nM |
| COc1ccc(Nc2cnnc3cc(-c4cnc(N5CCCN(C)CC5)nc4)ccc23)cc1 |  | adult worms | 10 µM, 5 h | direction not given | phenotypic severity score | 0 |
| CC1(CNc2nc(-c3cccs3)nc(Cl)c2-c2c(F)cc([N+](=O)[O-])cc2F)COC1 | worm motility | adult worms ex vivo | 24 h |  | EC50 | 2140 nM |
| CC1=C(Cn2cc(CN3CCNCC3)nn2)C(=O)c2ccccc2C1=O |  | adult worms | 10 µM, 72 h |  | killing | 46.2% |
| CN1CCN(S(=O)(=O)c2ccc(-c3ccc4c(Nc5cnccn5)cnnc4c3)cc2)CC1 |  | adult worms | 10 µM, 24 h | direction not given | phenotypic severity score | 0 |
| Fc1cc(F)c(-c2c(Cl)nc(-c3cccs3)nc2N2CCOCC2)c(F)c1 | worm motility | adult worms ex vivo | 24 h |  | EC50 | 1960 nM |
| CN1CCCN(c2ncc(-c3ccc4nncc(Nc5cnccn5)c4c3)cn2)CC1 |  | adult worms | 10 µM, 1 h | direction not given | phenotypic severity score | 0 |
| CC1(C(F)F)NC(=O)N(c2ccc(F)c(C(F)(F)F)c2)C1=O (stereo not drawn) |  | adult, infected mice | oral, 25 mg/kg single dose |  | worm burden reduction | 93% |
| Fc1cc(F)c(-c2c(Cl)nc(-c3cccs3)nc2N2CCCCCC2)c(F)c1 | worm motility | adult worms ex vivo | 24 h |  | EC50 | 2130 nM |

For quick reference, copied from above:
| Structure (SMILES) | assay | test system | conditions | scale | endpoint | value |
| --- | --- | --- | --- | --- | --- | --- |
| COc1ccc(Nc2cnnc3ccc(-c4cnc(N5CCCN(C)CC5)nc4)cc23)cc1 |  | adult worms | 10 µM, 48 h | direction not given | phenotypic severity score | 1 |
| CC1=C(Cc2cn(Cc3ccccc3)nn2)C(=O)c2ccccc2C1=O |  | adult worms | 10 µM, 24 h |  | killing | 50% |
| CN1CCN(S(=O)(=O)c2ccc(-c3ccc4nncc(Nc5ncccn5)c4c3)cc2)CC1 |  | adult worms | 10 µM, 1 h | direction not given | phenotypic severity score | 0 |
